Experimental data from different studies.
A part holds a random share of what one study measured.

Series 1
Target: RNA binding protein fox-1 homolog 2, RRM domain, GST-SBP tag (RBFOX2, Homo sapiens, UniProt O43251-10, residues 100-194)
Technique: RNA Bind-n-Seq
Molecule type: RNA
Matrix: in vitro
Tested at: 365 nM
Notes: natural RNA segment, single round, ends assumed
Relative to: no-protein control
Direction: higher = stronger binding
Endpoint: RBNS enrichment (R)
All sequences stand within: GGGAGUUCUACAGUCCGACGAUC … UGGAAUUCUCGGGUGCCAA
Construct (chain): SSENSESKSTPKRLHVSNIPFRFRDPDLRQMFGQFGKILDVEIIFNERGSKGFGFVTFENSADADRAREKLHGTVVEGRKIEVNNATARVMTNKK
GGAGCUCUUGGAUAUCAUUGGCCAUGUUUCAAUCGAAUGGAGCCACUGGGCCCCAACACUGGCUUUGAGAUUUAGAGUCAAAGGGUAGAGUGAACAGGAAAGGGUCACGU: 0.678
GACACAGAUUCUGGUUCAUUCAUUCAUUCAUUCCUUAGACAUUUUCGGUUUUACAAAGGAAGAACAGGUUUCCUAAGGCCGAGGAAAUCUUGGAGAAUAAAAAAGGACUU: 0.354
GCCGUCCCACCCUGCUGUGCCUGCACAGUUCCCAGUGCCUGUGCCUGCGCCUGCUGGGGACAGUGUGGCCCUGUCCCAGUAGCUUGAUGACUCAGGGUGGACCUUGCUCC: 1.67
CCCCGACGCCCCCCUUGGCACAAGUCAGAUGAAGCACGUUCUGCCGGGGAGGCCCUCACCUUCCAGAGAGGACAGACACAGAUUUCCUGCUGGGGGAGGGAGGAGUCCAC: 1.43
UGGAAUGAUGUAAGCAAAUGCUUUUGGUUACUGGUACAUGUGUUUUUUCCUAGCUGACCUUUUAUAUUGCUAAAUCUGAAAUAAAAUAACUUUCCUUCCACAUUACAUGU: 1.09

Series 2
Target: Interferon regulatory factor 5, full length, phosphomimetic (IRF5, Homo sapiens, UniProt Q13568-2, residues 1-514, S451D/S453D/S456D/S462D)
Technique: protein-binding microarray
Molecule type: double-stranded DNA, one strand shown
Matrix: in vitro
Tested at: 940 nM top
Notes: 60-bp whole probe
Together with: salmon DNA 0.4 mg/ml
Relative to: random background probes
Direction: higher = stronger binding
Endpoint: fitted relative affinity
GCCTAGCACTCAAACTTCCCAATGGTACTGTGCTAGGTCTTGATTCGCTTGACGCTGCTG: 0.401 z-score
GCCTAGCACTCATGCTTCTGTATGGGACTGTGCTAGGTCTTGATTCGCTTGACGCTGCTG: -0.229 z-score
GCCTAGCACAGTTTATTTATTTTTACATTGTGCTAGGTCTTGATTCGCTTGACGCTGCTG: 0.816 z-score
GCCTAGCACGACGGTTTCGGTTTCGGTACGTGCTAGGTCTTGATTCGCTTGACGCTGCTG: 16 z-score

Series 3
Target: Sal-like protein 4, full length isoform A (SALL4, Homo sapiens, UniProt Q9UJQ4, residues 1-1053)
Chain of UniProt Q9UJQ4 (whole entry, looked up): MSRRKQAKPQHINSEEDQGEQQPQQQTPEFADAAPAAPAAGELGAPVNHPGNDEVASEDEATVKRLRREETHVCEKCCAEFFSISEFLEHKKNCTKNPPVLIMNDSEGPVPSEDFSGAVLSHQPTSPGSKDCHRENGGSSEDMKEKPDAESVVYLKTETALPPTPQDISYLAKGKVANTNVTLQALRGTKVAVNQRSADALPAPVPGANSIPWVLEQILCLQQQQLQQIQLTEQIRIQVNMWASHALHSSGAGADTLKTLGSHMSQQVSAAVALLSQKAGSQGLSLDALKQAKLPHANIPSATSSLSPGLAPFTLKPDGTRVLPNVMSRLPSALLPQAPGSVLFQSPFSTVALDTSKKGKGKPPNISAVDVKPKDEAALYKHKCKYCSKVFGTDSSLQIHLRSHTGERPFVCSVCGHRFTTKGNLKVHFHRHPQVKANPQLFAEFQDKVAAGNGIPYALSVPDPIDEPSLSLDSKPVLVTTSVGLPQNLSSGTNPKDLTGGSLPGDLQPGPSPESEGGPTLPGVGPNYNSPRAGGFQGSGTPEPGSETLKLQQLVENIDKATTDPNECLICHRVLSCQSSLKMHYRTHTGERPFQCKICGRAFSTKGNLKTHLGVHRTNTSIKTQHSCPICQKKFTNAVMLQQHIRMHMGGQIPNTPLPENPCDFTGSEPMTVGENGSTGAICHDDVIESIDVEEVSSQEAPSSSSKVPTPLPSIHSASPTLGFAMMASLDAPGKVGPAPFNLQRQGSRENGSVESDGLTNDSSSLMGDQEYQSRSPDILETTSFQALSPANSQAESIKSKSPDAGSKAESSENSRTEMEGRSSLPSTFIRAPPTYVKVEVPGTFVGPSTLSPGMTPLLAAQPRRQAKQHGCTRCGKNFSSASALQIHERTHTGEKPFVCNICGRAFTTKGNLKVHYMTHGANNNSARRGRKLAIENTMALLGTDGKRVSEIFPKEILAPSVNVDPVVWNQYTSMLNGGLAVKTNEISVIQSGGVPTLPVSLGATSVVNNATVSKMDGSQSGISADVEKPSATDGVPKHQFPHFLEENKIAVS
Technique: universal PBM
Molecule type: double-stranded DNA, one strand shown
Matrix: in vitro
Tested at: 600 nM
Notes: 8-mer, flanks averaged, mean of replicates
Direction: higher = stronger binding
Endpoint: E-score
ACACGTTG: -0.0978
CACGCGGA: -0.101
AACGTTAA: 0.159
ATCCCCAT: -0.0769
CCGAATCA: 0.0306
ACGTTTAG: 0.0131

Other studies, line by line
PhoQ, residues 284 288 289 292 302 303 GNNTDL  fold induction (PhoP, residues 12 14 15 18 19 AQALL (Escherichia coli, UniProt P23836); Sort-seq, refers to: YFP reporter; E. coli; PhoQ-PhoP variant library, together with: 10 µM Mg2+; relative to: high Mg2+ state, higher = stronger signaling): 6.77

Some of these lines once more (series 3):
ATCCCCAT: -0.0769
